Assay results from different studies.
Each numbered part is a random draw from the data of one study; scales do not carry over between parts. Substitutions count along the parent as printed.

Series 1
Target: CCNB1, cyclin fold, Cln2 fusion (human)
Technique: yeast growth competition, sequencing
Matrix: yeast
Notes: weak parent motif
Reference: not given
Direction: higher = stronger binding
Starting sequence: HASPIN docking peptide (human); ASLRSVLFGLMNS
Substitution | normalised enrichment score
L3A | 0.123
V6A | 0.176
R4A | -0.637
S5A | 0.424
L10A | 0.639
S2A | 0.0135

Series 2
Target: RNA binding protein fox-1 homolog 2, RRM domain, GST-SBP tag (RBFOX2, Homo sapiens, UniProt O43251-10, residues 100-194)
Technique: RNA Bind-n-Seq
Molecule type: RNA
Matrix: in vitro
Concentration: 365 nM
Notes: natural RNA segment, single round, ends assumed
Reference: no-protein control
Direction: higher = stronger binding
Constant ends, left off below: GGGAGUUCUACAGUCCGACGAUC … UGGAAUUCUCGGGUGCCAA
Target sequence (chain): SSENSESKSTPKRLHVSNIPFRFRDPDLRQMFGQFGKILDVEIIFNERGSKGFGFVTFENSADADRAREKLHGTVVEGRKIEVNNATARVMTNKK
Sequence | RBNS enrichment (R)
UGAUGUCCCCUUUCCCUGCCACCUCCAGCCUCUGCCAGCAAUGAGCUGUCCCCCUCCCACCCUACACAGUAGCUGGUCAGGGCUGAGUACAGUCCUGGGGGUAAGGGGAU | 0.273
GAGGGGCUCUCUACCUUUGAAACUAUGAGAACGUCUUAAAUUAAUAUGAAUAUUUCUCUCCAUGUAUAGUGUGAGCUGCCAAUGCAUUAUCUUAAUACAUCAAGAAGGAA | 0.367
GUGAUCAUUGUUGAACUUCAGCUCCAGUGUCUCUCCAGAAUAAGACAUUGGCAUUCAAAUGUCUAUAUCUUGUUACUUACAAAAUAAAAAACAGAUUAAUUAGUGGCUUU | 0.593
UGAGUCAUUCUGUCCAUUCCUCCACCAGCUCCUGGGCACCACCUGAGAAACCGUGCUCUCUAAGUUUGUUCUCUGCUUUGACCCCACUUUUAUAGCUGUCUUUGCAUCUU | 1.34
GCCAACUCCCAGAGUUGACCUGUGUCACACCAGAUAACCAACUGCACUGCUGAAGUUUUCACAAGUGGAGUGUUGAAGGUGAAUCAGUAGUCUUUGGAGUCUACAAGUGA | 0.249
UGUAUUGAGACAGACCCGACAAGUUCCAUGGCAUUAAAUCCAGUUCUGCGUUGGCUGGGGCAGAGCUCAGCACCCUCAGCCCUGCGGCCGUUCAUCUUGUGUGUUUGUGA | 0.492
CUUACUUGAAACAGACAAUGAAAACAACCAAAGUGAUAUAUAAAAUAGUUGAUGAGAACUAGACUUAUGACUGUAGUUUACUAGAGUUUAGUUUUCAGUUGCUGAAGUAG | 0.801
UGGACAUUCACGCUCAGUAGCUUAAGGGAAUAUGCGUUGUCUACAAUGGUGACUGAUCUCGAAUCAGGUCUUUUCCUGCAAGGACUAUGGAGUUCCAUUCUUGACAUCUA | 0.373

Series 3
Target: ABI1, truncated, D143A, DHFR fusion (Arabidopsis thaliana)
Technique: DHFR PCA, deep sequencing
Matrix: yeast
Notes: methotrexate growth selection, single substitutions
Together with: (+)-ABA 0.032 µM
Reference: wild-type fitted maximum
Direction: higher = stronger binding
Starting sequence: PYL1, truncated, DHFR fusion (Arabidopsis thaliana); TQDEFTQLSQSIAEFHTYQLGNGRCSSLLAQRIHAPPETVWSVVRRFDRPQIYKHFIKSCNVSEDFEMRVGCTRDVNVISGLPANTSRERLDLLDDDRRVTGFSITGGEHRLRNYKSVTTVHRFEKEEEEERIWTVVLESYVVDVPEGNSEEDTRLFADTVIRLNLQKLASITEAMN
Substitution | relative binding score [%]
S63K | 42.3
V44T | -8.14
R111C | 11.6
V161R | 6.16
E64T | 18.5

Mixed results
Substance | target | test | system | conditions | scale | endpoint | value
PhoQ, residues 284 288 289 292 302 303 SCKMEA | PhoP, residues 12 14 15 18 19 TPWLV (Escherichia coli, UniProt P23836) | Sort-seq, item: YFP reporter | E. coli | PhoQ-PhoP variant library, together with: 10 µM Mg2+ | reference: high Mg2+ state, higher = stronger signaling | fold induction | 15.3

Excerpt of the above (series 1):
Substitution | normalised enrichment score
S5A | 0.424
L10A | 0.639
